{"data": "Experimental data gathered from unrelated publications", "note": "Parts stem from different laboratories: compare values within a part only. Positions count from the first letter of the parent shown."}
{"data": "Sample 1", "target": "RNA binding protein fox-1 homolog 2, RRM domain, GST-SBP tag (RBFOX2, Homo sapiens, UniProt O43251-10, residues 100-194)", "method": "RNA Bind-n-Seq", "molecule type": "RNA", "medium": "in vitro", "concentration": "365 nM", "setting": "natural RNA segment, single round, ends assumed", "baseline": "no-protein control", "direction": "higher = stronger binding", "shared flanks, not repeated": "GGGAGUUCUACAGUCCGACGAUC … UGGAAUUCUCGGGUGCCAA", "Residues (chain)": "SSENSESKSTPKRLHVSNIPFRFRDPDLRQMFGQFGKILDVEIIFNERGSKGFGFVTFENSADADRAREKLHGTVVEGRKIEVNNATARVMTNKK"}
{"Sequence": "AUUAUUUUAUCAUGCGGUUGCUGGGGAAUACAACUAACACUUUUGAAGCUACUAAUUUUAUGUCAAGCUUUAAAGUCCAUAAUUGUUAUCUUCAGAAAUAUUAUUUGACC", "RBNS enrichment (R)": 0.44}
{"Sequence": "UACAGUUUUGAUUUAUUUACAAUAUAUGCUGUGCCAUUUUGAUUUUUAUAUUGUUUGGUUGGUUGAAUAAAUUUGCGACACUCAAACACUUGAGGUGAUAGUUGUUAAAA", "RBNS enrichment (R)": 0.553}
{"Sequence": "UGUCACACAACACUGAUGUGACUUUUAUAUGCUUUUUCUCAGAUCUGGUUUCUAAGAGUUUUGGGGGGCGGGGCUGUCACCACGUGCAGUAUCUCAAGAUAUUCAGGUGG", "RBNS enrichment (R)": 0.304}
{"Sequence": "GGAAGCUCUCCGUUGUCUUUCAGUGAUACCCUCUUCCUUGCUUAAUUUGCUCUGAAAAGAAGCACAGUUGGGUAGACGAGGCCCGUGGAUGUCAUUUUUUUUUUUCUGGG", "RBNS enrichment (R)": 0.32}
{"Sequence": "CAGUGAAAUAAAUACAAUACCAGAGUACAUUAUGGGUUUUAUUGCUUUCUUUUAUGGUAGACCUGUUAAUGGGGAAAAAAUACAUCAAAUCAAAUAGAAUCUUAUAUCUG", "RBNS enrichment (R)": 0.356}
{"Sequence": "GUGCAUCUUUUCACGGCACUGCCGAGACGUACUCCCUGGUGUUGCCGCUCACAGGCCCUCAGCUGUCGGUGGUUCCUGCAGCUUUUGUUCCUCGCAUGUAAUCAGGGAGC", "RBNS enrichment (R)": 4.94}
{"Sequence": "AGAGUUAAUGGCAACCAAUAAUGGUGGCCUGUAGCUGCUAAGAGCUUCACGCAGGUUUGGCCUGGGCUUUCACUGUUGGUGAAUUUAGAGUGUCCUUUUAGGUGGGGCGG", "RBNS enrichment (R)": 0.392}
{"Sequence": "AGGGCGCCAACUUCAGGAGUCCGCUUUCCCACCAGGCUUCAUUCACCCAGUGGACCUGAACUGUUUGGUAGAGCCACCCGGCCCUUCCUUCCUCAUUGUUGUUUGGUAUG", "RBNS enrichment (R)": 0.329}
{"Sequence": "CUCUGCCAUCACAGAGAAGGAGACACACUUUGAGUCCCCACCAGCCAUUUGGAUGCGGCUCCAACCUUCCUUCCCUGCGUGUAAAUGAAUCCUGAACCUCGUACUUCACC", "RBNS enrichment (R)": 0.395}
{"Sequence": "UGCAAGACAGUAAGCCGCGGAUGGACUCUCACUUGUGCUUUGGAACACUGGACUCCAAAGAGCAGGUGGAACAAACUCUGGCCUGAAGAUGAUGGCUAAUACUCAGGCAG", "RBNS enrichment (R)": 0.531}
{"Sequence": "UCCUCAAACAGCAUGUUGUUGUUGGGGUGUUUUGUUUUGUUUUUGUUUGUUUUGGGUUUUUUUUUUUUUUUGCACAUGUAGAAAUUUUUUAAAAGAAGGAAAUUAAGACA", "RBNS enrichment (R)": 9.84}
{"Sequence": "UGUGGUGCUUCCGACCCUGGCUGUCAGAGUGAAAUGUAAAGUCAGGGCUCUGUACAGUUUUGCCAUUUCACUGUUCUGCUUUAAGCUUAGCUUAUUAGAACUCUUGGUGG", "RBNS enrichment (R)": 0.194}
{"data": "Sample 2", "target": "RING finger protein unkempt homolog, zinc fingers 1-6, GST-SBP tag (UNK, Homo sapiens, UniProt Q9C0B0, residues 30-357)", "method": "RNA Bind-n-Seq", "molecule type": "RNA", "medium": "in vitro", "concentration": "not given", "setting": "RNA with constant flanks, human and mouse sites, ends assumed", "baseline": "input RNA pool", "direction": "higher = stronger binding", "shared flanks, not repeated": "GGGAGUUCUACAGUCCGACGAUC … CAACAGAGGAUUGAGCAUCA", "Residues (chain)": "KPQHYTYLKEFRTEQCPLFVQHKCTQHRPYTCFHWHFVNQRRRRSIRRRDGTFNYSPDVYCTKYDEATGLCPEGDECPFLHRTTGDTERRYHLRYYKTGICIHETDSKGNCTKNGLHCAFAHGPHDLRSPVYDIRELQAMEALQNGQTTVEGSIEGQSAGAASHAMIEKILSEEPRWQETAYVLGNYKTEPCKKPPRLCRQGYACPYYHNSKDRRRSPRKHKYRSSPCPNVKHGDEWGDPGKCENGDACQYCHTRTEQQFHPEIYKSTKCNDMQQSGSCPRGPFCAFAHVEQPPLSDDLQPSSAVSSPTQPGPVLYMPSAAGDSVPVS"}
{"Sequence": "AAUGAAGGAACACUGGAUGAUUUUACAGUUAUAAACAGACGCAAAAAGGUAGCCAGCAAUGUAGCAUCAGCAGUGAAAAGGCCAUUUCAUUUCAUGGCAAAUUUUCCUUGUCCACCAUCA", "bound/input enrichment [ratio]": 0.297}
{"Sequence": "UGCUCUUGAUCAGGGACAAGGGAGGUCAAGCUCUGACUAAUGCCAUGACCUGAUUAAGGGGUACAGCAGGGAGUUUUGUUGCUACAGCUCAUGAAUUAACCUGUCCCAACCUAAUCCCCC", "bound/input enrichment [ratio]": 0.109}
{"Sequence": "AUGGAAGAUACGUUGAAGAGGAGGUUUUUCUACGAUCAGGCUUUUGCUAUUUAUGGAGGUGUCAGUGGAUUGUAUGACUUCGGGCCGGUAGGAUGUGCUUUGAAGAACAAUAUCAUCCAG", "bound/input enrichment [ratio]": 0.367}
{"Sequence": "GCAGUAAUGACUACCUAGGCAUGAGUCGACACCCACGGGUGUGUGGGGCUGUCAUGUGAGUAGCUCUCAGUUUUCACCUACCACAGGCGUUAUUUGGCAGGACUUGGGUGGCUUGUACAG", "bound/input enrichment [ratio]": 0.213}
{"Sequence": "GAACCUGCUCUUGCAUCAGUGGUAAUCCAUAAGGAGGCCACUGUCUUUGAUCUUCCUAAAUUUAGUGUUUGUGGUAGUUCUCAAGAGAGUGACUCAUUACCUAACUCAGCUCAUGAUCGA", "bound/input enrichment [ratio]": 0.225}
{"Sequence": "AAGACUGAAUUAAGUGAAAUUGUACUUUAUUUUACAUAUAUAAUGUCAUGUACAACUUGGCUUAGAUAGUGUUUUUGGGGGGGAUUUUUGUUUUGGUGUUUAUUUUUACACAAGGAAAGU", "bound/input enrichment [ratio]": 1.03}
{"Sequence": "UUGCGCCAGAGAACAGAAAACAUAGAUAUAAAAAAAUACUGUGUACAUUAUCUUGAGGAUGUAGGUUCUUUUGAAUACACUCGUAAUACCCUUAAAGAGCUUGAAGCUAAAGCCUAUAAA", "bound/input enrichment [ratio]": 1.31}
{"Sequence": "CCAAAUACUGAUGACCUGUUCAAAGCAGUUGGUGAUGGGAUCGUGCUCUGCAAAAUGAUCAACCUUUCAGUUCCUGAUACAAUUGACGAGAGAGCAAUCAAUAAGAAGAAGCUUACACCC", "bound/input enrichment [ratio]": 0.0537}
{"Sequence": "AGAGCCCAGGAUGUUGAUGCUACAAAUCCAAAUUACGAAAUUAUGUGUAUGAUCAGAGACUUCAGAGGGAGCUUGGAUUACAGACCCCUAACAACAGCAGAUCCUAUUGAUGAACAUAGG", "bound/input enrichment [ratio]": 0.321}
{"Sequence": "GGGAGGGAACCGAGUUAUCAAGAUGGGAGGAUUUUUCUUUUCUCUCUGUCUUUAGGAGUAGGGUGGGAUGGGGAGGGAGGCUGGGCAUCAGGGAUCACAUCACUCUUAACGGCUGUUACU", "bound/input enrichment [ratio]": 3.15}
{"Sequence": "CGCCCCGCGGGUUUUUUCCUUUUUUCCUUUUGCUUUUUUUCCUUUUCUCCCUCCGGGUCUCCUUUUUGACUCCCUCCCCCUUUAUGCUCGCCCAGCCCUCCCCCUGCUGCUGAGAAGUGG", "bound/input enrichment [ratio]": 1.92}
{"data": "Sample 3", "target": "XBP1, bZIP domain (human)", "method": "DHFR protein complementation", "medium": "yeast", "setting": "single substitutions, most at no-binding floor", "baseline": "wild-type JUN-FOS pair", "direction": "higher = stronger binding", "parent": "JUN, bZIP domain (human); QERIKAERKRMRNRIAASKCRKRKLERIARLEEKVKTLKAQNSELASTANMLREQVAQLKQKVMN; partner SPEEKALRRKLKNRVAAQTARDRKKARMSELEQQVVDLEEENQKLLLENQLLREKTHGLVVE"}
{"Variant": "N42A", "binding fitness [natural log]": -1.42}
{"Variant": "S47E", "binding fitness [natural log]": -0.412}
{"Variant": "E33G", "binding fitness [natural log]": -1.39}
{"Variant": "E33T", "binding fitness [natural log]": -1.21}
{"Variant": "E32C", "binding fitness [natural log]": -1.42}
{"Variant": "A57W", "binding fitness [natural log]": -1.11}
{"Variant": "E44P", "binding fitness [natural log]": -1.55}
{"Variant": "A49L", "binding fitness [natural log]": -1.06}
{"Variant": "S43Q", "binding fitness [natural log]": -0.325}
{"Variant": "A46L", "binding fitness [natural log]": -0.549}
{"Variant": "A49K", "binding fitness [natural log]": -1.16}
{"Variant": "V56E", "binding fitness [natural log]": -0.92}
{"data": "Sample 4", "target": "CCNB3, cyclin fold, Cln2 fusion (human)", "method": "yeast growth competition, sequencing", "medium": "yeast", "setting": "weak parent motif", "baseline": "not given", "direction": "higher = stronger binding", "parent": "RBL1 docking peptide (human); GSAKRRLFGEDPP; partner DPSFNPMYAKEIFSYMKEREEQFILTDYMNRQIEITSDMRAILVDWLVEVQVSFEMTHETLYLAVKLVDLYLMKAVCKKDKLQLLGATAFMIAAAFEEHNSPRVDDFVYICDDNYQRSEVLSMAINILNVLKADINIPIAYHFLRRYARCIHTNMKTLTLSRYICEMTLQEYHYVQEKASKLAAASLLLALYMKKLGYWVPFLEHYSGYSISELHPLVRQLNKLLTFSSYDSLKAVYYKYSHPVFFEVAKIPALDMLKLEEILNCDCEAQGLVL"}
{"Variant": "F8E", "normalised enrichment score": -0.46}
{"Variant": "R6Q", "normalised enrichment score": 0.0995}
{"Variant": "P13C", "normalised enrichment score": 0.911}
{"Variant": "R5W", "normalised enrichment score": -0.121}
{"Variant": "P12T", "normalised enrichment score": 1.03}
{"Variant": "G1T", "normalised enrichment score": 1.06}
{"Variant": "G1Y", "normalised enrichment score": 1.51}
{"Variant": "G1C", "normalised enrichment score": 0.314}
{"Variant": "F8R", "normalised enrichment score": -0.0248}
{"Variant": "S2Y", "normalised enrichment score": 0.663}
{"Variant": "R6P", "normalised enrichment score": -0.105}
{"Variant": "E10L", "normalised enrichment score": 0.407}
{"Variant": "S2E", "normalised enrichment score": 0.555}
{"Variant": "F8A", "normalised enrichment score": 0.0813}
{"Variant": "S2C", "normalised enrichment score": 0.851}
{"Variant": "P13T", "normalised enrichment score": 0.721}
{"Variant": "P12E", "normalised enrichment score": 1.21}
{"Variant": "E10H", "normalised enrichment score": 0.521}
{"Variant": "R6D", "normalised enrichment score": -0.0675}
{"Variant": "K4D", "normalised enrichment score": 0.316}
{"Variant": "P12G", "normalised enrichment score": 0.418}
{"Variant": "R5F", "normalised enrichment score": 0.617}
{"Variant": "S2M", "normalised enrichment score": 0.616}
{"Variant": "G1F", "normalised enrichment score": 1.72}
{"Variant": "R5D", "normalised enrichment score": 0.12}
{"note": "Some of these lines once more (sample 3):"}
{"Variant": "A57W", "binding fitness [natural log]": -1.11}
{"Variant": "N42A", "binding fitness [natural log]": -1.42}
{"Variant": "S47E", "binding fitness [natural log]": -0.412}
{"Variant": "A49K", "binding fitness [natural log]": -1.16}
{"Variant": "E33T", "binding fitness [natural log]": -1.21}
{"Variant": "E33G", "binding fitness [natural log]": -1.39}
{"Variant": "S43Q", "binding fitness [natural log]": -0.325}
{"Variant": "E32C", "binding fitness [natural log]": -1.42}
